Assay results collected from several papers.
Numbered parts are unrelated; each lists some results of a single study.

Sample 1
Target: Histone acetyltransferase KAT6A, winged helix 2, GST fusion (KAT6A, Homo sapiens, UniProt Q92794, residues 85-181)
Method: protein binding microarray
Form: double-stranded DNA, one strand shown
Medium: in vitro
Concentration: not given
Notes: 8-mer, flanks averaged, mean of 2 arrays, mostly near background
Reference: not given
Reading: higher = stronger binding
Target sequence (chain): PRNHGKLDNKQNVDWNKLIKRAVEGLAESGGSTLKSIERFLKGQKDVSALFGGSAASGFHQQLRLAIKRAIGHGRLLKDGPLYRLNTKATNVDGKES
Oligonucleotide | E-score
AAACCCTG | -0.00709
GTTTGGGA | 0.178
AACCAACG | -0.0162
AAGATCTT | -0.167
GAACGTGA | -0.0666
CGTAATAA | -0.268
ACTGTGAC | -0.0194
GCATAGGC | -0.0873
AGAATCAT | 0.0962
CAAAATGA | 0.0169
CACCCAGA | 0.109
CTCAGTCC | -0.0777
ATCCATAG | -0.186
AGAGTGAT | -0.00353
GATCGGAC | 0.0868
ATGGTAGC | -0.046

Sample 2
Target: Interferon regulatory factor 7, full length, phosphomimetic (IRF7, Homo sapiens, UniProt Q92985, residues 1-503, S101K/S471D/S472D/S475D/S476D/S477D/S483D/S484D/S487D)
Method: protein-binding microarray
Form: double-stranded DNA, one strand shown
Medium: in vitro
Concentration: 250 nM
Notes: 60-bp whole probe
Together with: salmon DNA 0.4 mg/ml
Reference: random background probes
Reading: higher = stronger binding
All sequences stand within: GCCTAGCAC … GTCTTGATTCGCTTGACGCTGCTG
Residues (chain): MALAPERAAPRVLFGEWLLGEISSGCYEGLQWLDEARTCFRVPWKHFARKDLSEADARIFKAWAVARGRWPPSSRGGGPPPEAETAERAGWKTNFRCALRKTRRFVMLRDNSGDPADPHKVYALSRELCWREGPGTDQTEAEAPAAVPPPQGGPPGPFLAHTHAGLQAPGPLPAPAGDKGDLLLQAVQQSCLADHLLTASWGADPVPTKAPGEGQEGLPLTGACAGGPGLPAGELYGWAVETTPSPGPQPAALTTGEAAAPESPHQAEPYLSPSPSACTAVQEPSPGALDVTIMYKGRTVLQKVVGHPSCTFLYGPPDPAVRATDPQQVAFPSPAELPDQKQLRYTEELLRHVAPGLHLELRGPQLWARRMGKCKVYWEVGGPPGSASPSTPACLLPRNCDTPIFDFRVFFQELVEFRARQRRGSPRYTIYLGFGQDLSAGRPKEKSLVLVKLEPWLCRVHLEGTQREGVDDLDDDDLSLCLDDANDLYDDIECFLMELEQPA
Oligonucleotide | log fluorescence
GCCAAACACCCACATTCACCGTGCTAG | -0.103 z-score
TTAGGTTTCGGCACTGGGTTAGTGCTA | 1.56 z-score
CTTTACTTCACTCTCTGCTTGTGCTAG | 0.583 z-score
GACGGTCTCCTCCTGCTGACGTGCTAG | 0.126 z-score
TCAAGCATGGATCTGGGACTGTGCTAG | -0.613 z-score
ATTTAAGTTTCACTCTGCATGGTGCTA | 3.82 z-score
TTGGTTCTGATCCTTCCCCTCGTGCTA | 0.452 z-score
TTAGGTTTCCTTATCCTTAAGTGCTAG | 3.57 z-score
TTAGATTTCTGGTATCGATTAGTGCTA | 1.3 z-score
TGAGAACTGAGTATCGATTAGTGCTAG | 0.41 z-score
TTAGGTCTCGGTCTCGTTTAGTGCTAG | 3.08 z-score
GACGATTTCGGGTATAGAGACGTGCTA | 0.544 z-score
GACGATCTCAGTTTCGACACGTGCTAG | 2.48 z-score
GACGGACTGGGCTTCGGGACGTGCTAG | -0.439 z-score
TTAGGTTTCGACTAACGGTTAGTGCTA | 6.45 z-score
CCAGGTTGGGAGGGGTAGGGGTGCTAG | 1.86 z-score
TTAGGTTTCCTTATCGTTTAGTGCTAG | 2.88 z-score
GACGGTATCGGGTATAGGGACGTGCTA | 0.0437 z-score
GACGATTTCAGTATCGCGACGTGCTAG | 0.511 z-score
TCAAGACTTGATTTTGGACTGTGCTAG | -0.139 z-score
GACGATCTCAGTCTCGGGACGTGCTAG | -0.0722 z-score
TTAGGTTTCGACTAGCGGTTAGTGCTA | 6.31 z-score
GACGATATCGGTATCGAGACGTGCTAG | 0.205 z-score
TCAGGCTTAGTTTGTCAAACTGTGCTA | -0.386 z-score
GCCGATTTCAGTATCGAGACGTGCTAG | 0.898 z-score

Sample 3
Target: RNA binding protein fox-1 homolog 2, RRM domain, GST-SBP tag (RBFOX2, Homo sapiens, UniProt O43251-10, residues 100-194)
Method: RNA Bind-n-Seq
Form: RNA
Medium: in vitro
Concentration: 365 nM
Notes: natural RNA segment, single round, ends assumed
Reference: no-protein control
Reading: higher = stronger binding
Oligonucleotide | RBNS enrichment (R)
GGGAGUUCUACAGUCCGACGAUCCUGGGUGGAGGCAGACCCCGAGCUCGGGGAAGGGGUUUUCCUGCCUUCACGACCCAGAUCUGUGCUGGCCAAAGUCGCUGCGUUUCUCAUCCCCAGCGAGGGUUUCCUCUUGGAAUUCUCGGGUGCCAA | 0.42
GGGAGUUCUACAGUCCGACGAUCCAUAUUUGAACUGCCAUCUAUUAGCAUAUUCAUCACACUACAUAGACAUAGUUUUACUGCCCCCUUUUUAGCUCAUGGGAUUUCCUGUUUACAGGUAGCAAUAGUCAAUUUGGAAUUCUCGGGUGCCAA | 0.461
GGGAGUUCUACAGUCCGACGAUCGUCCAUUCAGCCAGGAACACACUCUAGCCUUCCUGACUCUCUUAAACUGUGGACGUCAGGAGGCCGAAUGCAGAAAAGUAUAUCUGGGAUGGAUGGCAGGGAAUAGAAGCUGGAAUUCUCGGGUGCCAA | 8.1
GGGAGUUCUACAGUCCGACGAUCCCCAGGCUGGGGCUAUGCGCCGUCCCCCUACACUUCUGCCAGUGCCUUACUUCCUGGAGACCCACCCUGGGGUACCCCACUGCAGGGGGGUACCCCCUUUGCACUUUGACUGGAAUUCUCGGGUGCCAA | 0.738
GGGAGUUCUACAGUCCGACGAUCCAUUUUCAUCACUGAAAGUCAGAGGCCAAGGAAAUCAUUUCUACUUCUUUAAAAACUCCUUCUAAGCAUAUUAAAAUGUGAAAUUUUGCGUACUCUCUCUCUCUAUAUAUUGGAAUUCUCGGGUGCCAA | 0.68
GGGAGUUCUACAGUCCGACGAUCUUUGAAAAUAGAAUAAAUAAUAAGAAUUUCCAAUUAAAUCAUGUCUGGUGCCAAUGUGCAAAACUUCCAUGUGUUUUUGUGAUUGGAGUUUAUUUCAUGGCUUUAUUCUAUGGAAUUCUCGGGUGCCAA | 0.577
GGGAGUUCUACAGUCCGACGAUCAUAACUUGCUAAACAAGUAUUCCAAAAAUUUGAUCUAGUCAAUCCAUUGUGUGAAUCUCAAAUAUCUCAAGACACGCAGCCUAAGCAUCUCCAUUAUCCCGUGCACAUAAUGGAAUUCUCGGGUGCCAA | 0.512
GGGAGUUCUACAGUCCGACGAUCAGCCCAGCCAUCAGCCCAGAUGACAGCGAUGAGGAGAACUGAGCGAACAGGGCGAAGAGCUGGUUAGGGUCAGACAACCUCGGUGGCCUGUGUGUCACUUCCCUCACCUCUGGAAUUCUCGGGUGCCAA | 0.416
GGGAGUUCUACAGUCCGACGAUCACCUACUAAGCAGAGCAAGGCCUGGGUAUCAAACAGUUCUGUGUUAACAGUUCCUAAAUUCUAAGGUCCUUGAAUUUGAAGGAAAGACCUUUAGGCCAACUCUGUCUUGGUGGAAUUCUCGGGUGCCAA | 0.381
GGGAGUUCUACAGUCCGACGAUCCAUUAUUACACACAGGAGAGCCAUUAUCAAAUGUUUUACAGAACAGCAGCGUUAGAGAGUGGGUUUGGUGGGUUGUGGAUAACCAAGAUGGCGUGAAGUAAUGGCAGUAGUGGAAUUCUCGGGUGCCAA | 1.15
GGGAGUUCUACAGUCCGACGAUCCACACACACACACACACACUCUUGAUCCCUUGCUUCCCUCCCCCAGUGCGUUCUGUGAUCGCCAAGUUCAAAGCUGUGCACAUGUGGACACUCAAUAAAUGUUCAUUGGUUGGAAUUCUCGGGUGCCAA | 0.6
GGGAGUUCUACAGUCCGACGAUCGGGAGGACAGCCACCAACUAGCUCACUCAGCAUUUUAAACUUGAGUUCCUUUGAUAUCUGAGUUUAUUCAACAGUUCUUGGGUUUAGCAAACCCAAAAUAUUUUAUUAAGUGGAAUUCUCGGGUGCCAA | 0.628

Sample 4
Target: Ras GTPase-activating protein-binding protein 1, full length (G3BP1, Homo sapiens, UniProt Q13283)
Sequence of UniProt Q13283 (whole entry, looked up): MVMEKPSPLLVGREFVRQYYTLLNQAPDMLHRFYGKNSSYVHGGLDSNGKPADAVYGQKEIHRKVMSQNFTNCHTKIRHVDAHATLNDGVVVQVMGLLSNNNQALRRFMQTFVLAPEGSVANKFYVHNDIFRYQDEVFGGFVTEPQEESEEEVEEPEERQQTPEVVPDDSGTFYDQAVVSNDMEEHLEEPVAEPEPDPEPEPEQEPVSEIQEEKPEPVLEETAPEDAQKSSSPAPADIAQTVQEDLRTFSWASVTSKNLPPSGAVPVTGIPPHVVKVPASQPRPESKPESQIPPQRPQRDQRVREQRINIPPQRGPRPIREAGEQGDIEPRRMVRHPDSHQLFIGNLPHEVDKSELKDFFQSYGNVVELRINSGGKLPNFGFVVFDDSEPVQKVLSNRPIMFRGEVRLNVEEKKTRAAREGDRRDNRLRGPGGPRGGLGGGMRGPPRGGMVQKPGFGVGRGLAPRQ
Method: RNA Bind-n-Seq
Form: RNA
Medium: in vitro
Concentration: 200 nM
Notes: whole 134-nt RNA, ends assumed
Together with: 150 mM KCl
Reference: input library
Reading: higher = stronger binding
Oligonucleotide | log2 enrichment
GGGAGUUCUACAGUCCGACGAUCUAACUUUAGAGGAGGAUCUGAUGGAUAUGGCAGUGGACGUGGAUUUGGGGAUGGCUAUAAUGGGUAUCGAGGAGGACCUGGAGGUGGCAAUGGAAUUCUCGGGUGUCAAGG | 0.13
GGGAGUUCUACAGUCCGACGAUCUGGCCCUGAUGGCAUGCGGGGAGGAAGAGGUGGCCUCAUGGAUCGUGGUGGUCCCGGUGGAAUGUUCAGAGGUGGCCGUGGUGGAGACAGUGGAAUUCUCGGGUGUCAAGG | 0.202
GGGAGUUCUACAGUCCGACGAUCAGUCCUGUGCUACACAUCGUAUGUACCGAAUCGGGGAGGGGUGGGGUUUUUUUGGGGAAAGUAUUAUGUUACGCCGUUCGGAUCUGCACUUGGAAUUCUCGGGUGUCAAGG | 0.536
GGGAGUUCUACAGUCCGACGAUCCAAGUCCUGUGCUACACAUCGUAUGUACCGAAUCGGGUUUGGGUUUGGUUUGGGGAAAGUAUUAUGUUACGCCGUUCGGAUCUGCACUUCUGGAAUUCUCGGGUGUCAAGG | 0.172
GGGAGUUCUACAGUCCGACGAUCCAAGUCCUGUGCUACACAUCGUAUGUACCGAAUCGGGUGGGUGGGUUUUUUUGGGAAAGUAUUAUGUUACGCCGUUCGGAUCUGCACUUCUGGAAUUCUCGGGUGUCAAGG | 0.483
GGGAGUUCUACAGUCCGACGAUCGCAGGAAGUAAUAACAAAUGGAAAUGCUUCGGAUAGUGGCAGGGGUGGGGGUUGCUAAGGAAAGGGUGGGAUGGGAGUGGGUAAAGAGUUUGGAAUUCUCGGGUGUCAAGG | 1.18
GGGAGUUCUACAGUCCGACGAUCGCAGGAAGUAAAAACAAAUGGAAAUGCGUCGGAUAGUGGCAGGGGUGGGGGUUGCUAAGGAAAGGGUGGGAUGGGAGUGGGUAAAGAGUUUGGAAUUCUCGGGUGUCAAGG | 0.617
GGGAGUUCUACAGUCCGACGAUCUCCUGUGCUACACAUCGUAUGUACCGAAUCGGUUUUUUGGGGUUUUUUGGUUUUUUGGGAAAGUAUUAUGUUACGCCGUUCGGAUCUGCAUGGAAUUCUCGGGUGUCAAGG | -0.67

Some of these lines once more (sample 2):
Oligonucleotide | log fluorescence
CTTTACTTCACTCTCTGCTTGTGCTAG | 0.583 z-score
TCAAGACTTGATTTTGGACTGTGCTAG | -0.139 z-score
GACGATTTCGGGTATAGAGACGTGCTA | 0.544 z-score
TCAGGCTTAGTTTGTCAAACTGTGCTA | -0.386 z-score
TTAGATTTCTGGTATCGATTAGTGCTA | 1.3 z-score
TTAGGTTTCGGCACTGGGTTAGTGCTA | 1.56 z-score
GCCAAACACCCACATTCACCGTGCTAG | -0.103 z-score
GCCGATTTCAGTATCGAGACGTGCTAG | 0.898 z-score
